# Results pooled from the literature.
# The chains behind the UniProt entries cited, without tags or fusion partners. Residues count along the entry.
# UniProt P18031, 1-321 limits assumed: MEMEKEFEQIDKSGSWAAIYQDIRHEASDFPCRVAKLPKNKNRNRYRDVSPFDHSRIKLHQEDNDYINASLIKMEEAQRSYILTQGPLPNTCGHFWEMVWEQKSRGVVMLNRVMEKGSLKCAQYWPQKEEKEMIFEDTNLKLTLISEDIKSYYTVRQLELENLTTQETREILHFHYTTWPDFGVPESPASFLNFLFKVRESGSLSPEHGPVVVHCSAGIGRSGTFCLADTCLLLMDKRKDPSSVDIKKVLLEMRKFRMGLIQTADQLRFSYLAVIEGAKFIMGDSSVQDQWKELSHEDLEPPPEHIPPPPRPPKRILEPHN
# UniProt P18031, whole entry: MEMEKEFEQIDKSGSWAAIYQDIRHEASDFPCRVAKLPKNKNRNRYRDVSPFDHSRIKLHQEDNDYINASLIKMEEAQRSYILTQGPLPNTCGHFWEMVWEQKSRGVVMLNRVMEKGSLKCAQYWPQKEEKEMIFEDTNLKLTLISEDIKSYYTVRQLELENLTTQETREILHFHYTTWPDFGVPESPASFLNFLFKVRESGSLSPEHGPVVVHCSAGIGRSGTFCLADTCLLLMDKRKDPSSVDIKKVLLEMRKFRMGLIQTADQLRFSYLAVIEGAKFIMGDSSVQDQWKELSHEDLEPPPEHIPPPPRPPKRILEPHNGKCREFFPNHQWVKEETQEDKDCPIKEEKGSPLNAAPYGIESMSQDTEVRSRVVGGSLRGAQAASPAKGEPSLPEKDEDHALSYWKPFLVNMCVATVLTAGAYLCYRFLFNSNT
# UniProt P30419, whole entry: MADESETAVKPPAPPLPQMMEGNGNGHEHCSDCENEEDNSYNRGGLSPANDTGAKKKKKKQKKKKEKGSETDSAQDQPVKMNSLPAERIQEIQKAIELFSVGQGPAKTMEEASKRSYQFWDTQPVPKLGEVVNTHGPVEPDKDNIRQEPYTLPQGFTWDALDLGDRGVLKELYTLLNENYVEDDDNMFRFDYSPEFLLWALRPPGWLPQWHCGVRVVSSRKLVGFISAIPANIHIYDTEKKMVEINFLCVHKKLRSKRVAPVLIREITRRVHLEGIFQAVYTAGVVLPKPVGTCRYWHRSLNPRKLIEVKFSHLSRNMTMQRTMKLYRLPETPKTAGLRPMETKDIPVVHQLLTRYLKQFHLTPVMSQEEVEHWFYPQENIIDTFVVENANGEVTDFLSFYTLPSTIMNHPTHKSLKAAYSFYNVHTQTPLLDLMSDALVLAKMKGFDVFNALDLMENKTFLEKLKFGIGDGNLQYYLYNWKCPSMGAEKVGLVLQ
# UniProt Q16539, whole entry: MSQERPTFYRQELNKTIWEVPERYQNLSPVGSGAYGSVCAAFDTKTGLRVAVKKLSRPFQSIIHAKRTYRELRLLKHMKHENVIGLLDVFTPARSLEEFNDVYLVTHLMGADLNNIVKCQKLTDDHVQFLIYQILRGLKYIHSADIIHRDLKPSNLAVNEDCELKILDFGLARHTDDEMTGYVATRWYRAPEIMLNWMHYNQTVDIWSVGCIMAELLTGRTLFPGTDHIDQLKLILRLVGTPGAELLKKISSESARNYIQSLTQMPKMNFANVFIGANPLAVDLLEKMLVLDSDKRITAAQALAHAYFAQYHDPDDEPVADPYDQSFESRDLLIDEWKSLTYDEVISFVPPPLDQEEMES
# UniProt P0C7A3, whole entry: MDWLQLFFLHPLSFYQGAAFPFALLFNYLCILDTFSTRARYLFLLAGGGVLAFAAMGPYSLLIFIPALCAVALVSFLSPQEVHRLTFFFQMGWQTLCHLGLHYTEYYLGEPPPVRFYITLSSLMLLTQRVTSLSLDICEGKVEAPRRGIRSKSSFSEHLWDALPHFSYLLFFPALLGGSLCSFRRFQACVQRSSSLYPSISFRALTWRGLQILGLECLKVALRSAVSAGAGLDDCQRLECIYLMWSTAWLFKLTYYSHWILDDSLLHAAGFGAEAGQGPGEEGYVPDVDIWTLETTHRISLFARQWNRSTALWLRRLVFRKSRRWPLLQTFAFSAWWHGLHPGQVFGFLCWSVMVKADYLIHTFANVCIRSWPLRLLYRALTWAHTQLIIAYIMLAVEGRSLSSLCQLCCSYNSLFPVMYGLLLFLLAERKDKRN
# UniProt Q9BY41, whole entry: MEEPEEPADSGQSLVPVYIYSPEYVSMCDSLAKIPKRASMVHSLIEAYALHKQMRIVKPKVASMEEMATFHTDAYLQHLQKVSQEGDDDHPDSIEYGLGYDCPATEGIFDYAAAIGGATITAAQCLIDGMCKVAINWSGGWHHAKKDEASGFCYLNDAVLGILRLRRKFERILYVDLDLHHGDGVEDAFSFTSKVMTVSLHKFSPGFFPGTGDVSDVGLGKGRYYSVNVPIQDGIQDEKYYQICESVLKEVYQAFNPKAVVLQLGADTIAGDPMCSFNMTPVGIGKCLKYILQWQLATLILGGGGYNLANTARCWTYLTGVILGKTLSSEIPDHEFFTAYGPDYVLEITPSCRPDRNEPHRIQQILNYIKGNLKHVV
# UniProt O60502, whole entry: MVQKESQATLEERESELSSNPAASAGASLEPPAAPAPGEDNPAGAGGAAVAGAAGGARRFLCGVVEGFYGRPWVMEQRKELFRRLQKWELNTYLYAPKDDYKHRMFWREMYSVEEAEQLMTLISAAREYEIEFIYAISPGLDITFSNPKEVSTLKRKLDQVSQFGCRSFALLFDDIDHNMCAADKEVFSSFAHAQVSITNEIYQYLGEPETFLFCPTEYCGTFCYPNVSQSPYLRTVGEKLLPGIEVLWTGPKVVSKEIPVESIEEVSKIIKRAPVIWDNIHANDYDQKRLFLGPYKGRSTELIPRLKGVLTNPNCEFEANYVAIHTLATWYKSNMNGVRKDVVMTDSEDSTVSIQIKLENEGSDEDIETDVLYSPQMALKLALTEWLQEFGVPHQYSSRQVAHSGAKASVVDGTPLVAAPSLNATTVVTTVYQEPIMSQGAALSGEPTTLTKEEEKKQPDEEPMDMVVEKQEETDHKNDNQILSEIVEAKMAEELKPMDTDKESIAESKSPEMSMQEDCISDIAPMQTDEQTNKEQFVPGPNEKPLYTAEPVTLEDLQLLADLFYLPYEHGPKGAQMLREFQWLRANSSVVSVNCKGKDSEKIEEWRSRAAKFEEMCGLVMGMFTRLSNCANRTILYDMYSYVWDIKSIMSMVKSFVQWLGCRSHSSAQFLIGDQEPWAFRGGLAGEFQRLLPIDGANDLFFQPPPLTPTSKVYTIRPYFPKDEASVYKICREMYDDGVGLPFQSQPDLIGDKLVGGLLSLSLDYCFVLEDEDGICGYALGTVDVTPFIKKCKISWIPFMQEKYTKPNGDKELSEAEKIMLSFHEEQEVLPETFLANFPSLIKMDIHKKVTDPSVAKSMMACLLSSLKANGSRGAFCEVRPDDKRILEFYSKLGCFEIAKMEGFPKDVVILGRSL
# UniProt O60704, 25-377 limits assumed: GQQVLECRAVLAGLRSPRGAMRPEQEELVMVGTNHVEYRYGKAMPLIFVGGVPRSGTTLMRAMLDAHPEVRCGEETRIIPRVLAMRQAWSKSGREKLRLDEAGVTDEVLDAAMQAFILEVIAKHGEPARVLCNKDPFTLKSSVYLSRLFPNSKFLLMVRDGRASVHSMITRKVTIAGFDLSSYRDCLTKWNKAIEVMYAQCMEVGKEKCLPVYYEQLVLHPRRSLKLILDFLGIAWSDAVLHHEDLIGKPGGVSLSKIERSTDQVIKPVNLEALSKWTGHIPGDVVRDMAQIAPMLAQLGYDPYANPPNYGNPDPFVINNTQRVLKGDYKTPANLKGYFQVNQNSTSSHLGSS
# UniProt Q66478, 863-1012 limits assumed: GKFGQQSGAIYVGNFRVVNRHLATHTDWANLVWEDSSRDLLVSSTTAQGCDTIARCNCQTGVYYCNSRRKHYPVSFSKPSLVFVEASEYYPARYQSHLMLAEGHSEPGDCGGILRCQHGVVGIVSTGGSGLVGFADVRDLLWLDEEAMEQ
# Lines come from different studies, so protocols differ. Numbers after ± are the reported error.
# PTPN1: Tyrosine-protein phosphatase non-receptor type 1 (PTPN1, Homo sapiens, UniProt P18031)
Structure (SMILES),tested on,assay,test system,setting,endpoint,value
N#Cc1c(-c2ccc(Cl)cc2Cl)n(-c2nc(-c3ccc(Cl)cc3)c3c(NC(=O)c4ccccc4)nnc-3[nH]2)[nH]c1=O,SF-295,SRB,,10 µM,cell growth,-13.9%
CC[C@H](C)[C@H](NC(=O)[C@H](CC(=O)O)NC(=O)[C@H](CC(=O)O)NC(=O)[C@H](Cc1ccc(OP(=O)(O)O)cc1)NC(=O)[C@H](C)NC(=O)[C@H](C)NC(C)=O)C(=O)N[C@@H](CC(=O)O)C(=O)N[C@@H](CCC(=O)O)C(N)=O,PTPN1,substrate,,"pH 7.4, catalytic domain",Km,3.5 ± 0.1 µM
CC(=O)N[C@@H](CC(=O)O)C(=O)N[C@@H](C)C(=O)N[C@@H](C)C(=O)N[C@@H](CC(=O)O)C(=O)N[C@H](C(=O)N[C@@H](Cc1ccc(OP(=O)(O)O)cc1)C(=O)N[C@@H](C)C(=O)N[C@@H](C)C(N)=O)C(C)C,PTPN1,"substrate, continuous UV",,"pH 7.4, multiply phosphorylated peptides apparent",Km,10 ± 1 µM
CCOC(=O)c1c(-c2ccc(Cl)cc2Cl)n(-c2nc(-c3ccc(Cl)cc3)c3c(NC(=O)c4ccccc4)nnc-3[nH]2)[nH]c1=O,SF-539,SRB,,10 µM,cell growth,-4.38%
C=C(C)C(=O)Nc1ccc(-c2c(-c3ccc(Oc4nccc(C)n4)c(F)c3)c3c(N)ncnc3n2C)cc1,EN,"cell growth, CellTiter-Glo",,120 h,IC50,279 nM
NCC(=O)N[C@@H](CCC(N)=O)C(=O)N[C@@H](CO)C(=O)N[C@@H](CCC(N)=O)C(=O)N[C@@H](CO)C(=O)NCC(=O)NCC(=O)N[C@@H](Cc1c[nH]cn1)C(=O)O,"NMT1 (Homo sapiens, UniProt P30419)",substrate,,,Km,40 µM
CC(C)C[C@H](NC(=O)[C@H](CC(N)=O)NC(=O)[C@@H](N)CC(=O)O)C(=O)N[C@@H](Cc1ccc(O)cc1)C(=O)N[C@@H](Cc1ccc(OP(=O)(O)O)cc1)C(=O)N[C@@H](Cc1c[nH]c2ccccc12)C(=O)N[C@@H](CC(=O)O)C(N)=O,PTPN1,"enzyme activity, substrate",,pH 7.4,Km,5.8 ± 0.8 µM
CC(=O)N[C@@H](C)C(=O)N[C@H](C(=O)N[C@@H](Cc1ccc(OP(=O)(O)O)cc1)C(=O)N[C@@H](C)C(=O)N[C@@H](CC(=O)O)C(=O)N[C@@H](Cc1c[nH]cn1)C(=O)N[C@@H](Cc1ccc(OP(=O)(O)O)cc1)C(=O)N[C@@H](C)C(=O)N[C@@H](C)C(N)=O)C(C)C,PTPN1,"substrate, continuous UV",,"pH 7.4, multiply phosphorylated peptides apparent",Km,3.1 ± 0.6 µM
CC(C)C[C@H](NC(=O)[C@@H](NC(=O)[C@H](CC(C)C)NC(=O)[C@H](CS)NC(=O)CNS(=O)(=O)c1cccc2c(N(C)C)cccc12)C(C)C)C(=O)O,"geranylgeranyltransferase type-I (Rattus norvegicus, UniProt P53610+Q04631)","substrate, fluorescence",,"30 °C, together with: GDP 30 µM and GGPP 10 µM",Km,2.1 ± 1.1 µM
CC(C)C[C@H](NC(=O)[C@H](C)NC(=O)[C@H](CCCNC(=N)N)NC(=O)[C@H](CCCNC(=N)N)NC(=O)[C@H](CCCNC(=N)N)NC(=O)[C@H](C)NC(=O)[C@H](CC(C)C)NC(=O)[C@H](CCCNC(=N)N)NC(=O)[C@H](CO)NC(=O)[C@H](CCCCN)NC(=O)[C@H](CO)NC(=O)Cn1cc(COC(=O)[C@]2(C)C=C(C(=O)OC(C)(C)C)C(=O)CC2)nn1)C(=O)O,"MAPK14 (Homo sapiens, UniProt Q16539)","enzyme activity, inhibitor, D-SENSOR",,2.469 µM,normalized kinase activity,0.0912
CC(=O)N[C@@H](C)C(=O)N[C@H](C(=O)N[C@@H](Cc1c[nH]c2ccccc12)C(=O)N[C@@H](CCC(=O)O)C(=O)N[C@@H](Cc1ccccc1)C(=O)N[C@@H](Cc1ccc(OP(=O)(O)O)cc1)C(=O)N[C@@H](Cc1ccc(OP(=O)(O)O)cc1)C(=O)N[C@@H](C)C(=O)N[C@@H](C)C(N)=O)C(C)C,PTPN1,"substrate, continuous UV",,"pH 7.4, multiply phosphorylated peptides apparent",Km,2.9 ± 0.6 µM
CC(C)C[C@H](NC(=O)[C@H](Cc1ccccc1)NC(=O)[C@H](CO)NC(=O)[C@H](CO)NC(=O)CN)C(=O)N[C@@H](CO)C(=O)N1CCC[C@H]1C(=O)N[C@@H](CCC(=O)O)C(=O)N[C@@H](Cc1c[nH]cn1)C(=O)N[C@@H](CCC(N)=O)C(=O)NCCCCCC(=O)N[C@@H](CCCCNC(=O)CCCC[C@@H]1SC[C@@H]2NC(=O)N[C@@H]21)C(=O)NCC(=O)O,"Membrane-bound ghrelin O-acyltransferase MBOAT4 (Mus musculus, UniProt P0C7A3)",substrate,,pH 7,Km,30.4 ± 5.1 µM
CC(=O)N[C@@H](CCC(=O)O)C(=O)N[C@@H](CCC(=O)O)C(=O)N[C@@H](CC(=O)O)C(=O)N[C@@H](CC(N)=O)C(=O)N[C@@H](C)C(=O)N[C@@H](Cc1c[nH]c2ccccc12)C(=O)N[C@@H](Cc1ccc(OP(=O)(O)O)cc1)C(=O)N[C@@H](C)C(=O)N[C@@H](C)C(N)=O,PTPN1,substrate,,"pH 7.4, catalytic domain",Km,1.3 ± 0.1 µM
CC(=O)NCCCC[C@H](NC(=O)[C@H](CCCCNC(C)=O)NC(=O)[C@H](Cc1c[nH]cn1)NC(=O)[C@H](CCCNC(=N)N)NC(C)=O)C(=O)Nc1ccc2c(C)cc(=O)oc2c1,"HDAC8 (Homo sapiens, UniProt Q9BY41)",substrate,,25 °C,Km,1300 ± 300 µM
CC(=O)N[C@@H](C)C(=O)N[C@@H](CO)C(=O)N[C@@H](CO)C(=O)N[C@@H](CC(=O)O)C(=O)N[C@@H](CCC(=O)O)C(=O)N[C@@H](Cc1ccc(OP(=O)(O)O)cc1)C(=O)N[C@@H](C)C(=O)N[C@@H](C)C(N)=O,PTPN1,substrate,,"pH 7.4, catalytic domain",Km,1.8 ± 0.1 µM
CC(=O)N[C@H]1[C@H](OC[C@H](NC(=O)[C@H](Cc2ccc(O)cc2)NC(=O)[C@@H]2CCCN2C(=O)[C@@H](NC(C)=O)C(C)C)C(=O)N[C@@H](CO)C(=O)N[C@@H](C)C(=O)N[C@@H](CCC(N)=O)C(N)=O)O[C@H](CO)[C@@H](O)[C@@H]1O,"Protein O-GlcNAcase (OGA, Homo sapiens, UniProt O60502)",substrate,,"pH 7.5, 37 °C, together with: 4MU-GlcNAc 200 µM competition",Km,4100 ± 300 µM
CC(=O)N[C@@H](CC(=O)O)C(=O)N[C@H](C(=O)N[C@@H](C)C(=O)N[C@@H](C)C(=O)N[C@H](C(=O)N[C@@H](Cc1ccc(OP(=O)(O)O)cc1)C(=O)N[C@@H](C)C(=O)N[C@@H](C)C(N)=O)C(C)C)[C@@H](C)O,PTPN1,"substrate, continuous UV",,"pH 7.4, multiply phosphorylated peptides apparent",Km,18 ± 0.14 µM
CC[C@H](C)[C@H](NC(=O)CNC(=O)[C@H](CCCNC(=N)N)NC(=O)[C@@H]1CCCN1C(=O)[C@H](CC(=O)O)NC(C)=O)C(=O)N[C@@H](Cc1ccc(OP(=O)(O)O)cc1)C(=O)N[C@@H](CC(=O)O)C(=O)N[C@@H](CCC(N)=O)C(=O)N[C@H](C(=O)N[C@@H](C)C(=O)NCC(N)=O)C(C)C,PTPN1,substrate,,"pH 7.4, catalytic domain",Km,7.1 ± 0.4 µM
CC(=O)N[C@@H](C)C(=O)N[C@H](C(=O)N[C@@H](C)C(=O)N[C@@H](CC(=O)O)C(=O)N[C@H](C(=O)N[C@@H](Cc1ccc(OP(=O)(O)O)cc1)C(=O)N[C@@H](C)C(=O)N[C@@H](C)C(N)=O)C(C)C)[C@@H](C)O,PTPN1,"substrate, continuous UV",,"pH 7.4, multiply phosphorylated peptides apparent",Km,12 ± 2 µM
CC[C@H](C)[C@H](NC(=O)[C@H](CC(=O)O)NC(=O)[C@@H]1CCCN1C(=O)[C@H](Cc1ccc(O)cc1)NC(=O)[C@H](Cc1ccc(O)cc1)NC(=O)[C@H](Cc1ccc(O)cc1)NC(=O)[C@H](CC(=O)O)NC(=O)[C@@H](NC(=O)[C@@H](N)C(C)C)[C@@H](C)O)C(=O)O,"Protein-tyrosine sulfotransferase 2 (Homo sapiens, UniProt O60704)","substrate, LC-MS initial velocity",,"pH 7.5, 30 °C, reaction 1, together with: saturating PAPS",Km,19.3 µM
CC(=O)N[C@@H](C)C(=O)N[C@@H](CO)C(=O)N[C@@H](CO)C(=O)N[C@@H](CC(=O)O)C(=O)N[C@@H](CC(=O)O)C(=O)N[C@@H](Cc1ccc(OP(=O)(O)O)cc1)C(=O)N[C@@H](C)C(=O)N[C@@H](C)C(N)=O,PTPN1,"substrate, continuous UV",,"pH 7.4, multiply phosphorylated peptides apparent",Km,18 ± 1 µM
CC[C@H](C)[C@H](NC(=O)[C@H](CCCCN)NC(=O)[C@H](CC(=O)O)NC(=O)[C@H](CCCNC(=N)N)NC(=O)c1ccc(N=Nc2ccc(N(C)C)cc2)cc1)C(=O)N[C@H](C(=O)N[C@@H](Cc1ccccc1)C(=O)N[C@@H](CCSC)C(=O)NCC(=O)N[C@@H](CCCCN)C(=O)N[C@@H](Cc1ccccc1)C(=O)NCC(=O)N[C@@H](CCC(N)=O)C(=O)N[C@@H](CC(=O)O)C(=O)N[C@@H](CCC(=O)NCCNc1cccc2c(S(=O)(=O)O)cccc12)C(N)=O)[C@@H](C)O,"Genome polyprotein, 2A protease (Enterovirus A71, UniProt Q66478)","protease activity, substrate, FRET",enterovirus 71,"pH 7.4, 30 °C",Km,32.5 ± 2.87 µM
